Measured values of several laboratories.
Numbered parts are unrelated; each lists some results of a single study.

Set 1 — method: universal PBM; form: double-stranded DNA, one strand shown; sample: in vitro; concentration: not given; direction: higher = stronger binding; endpoint: E-score
Target: Sal-like protein 4, full length isoform B (SALL4, Homo sapiens, UniProt Q9UJQ4-2, residues 1-616)
Setting: 8-mer, flanks averaged, mean of replicates
Construct (chain): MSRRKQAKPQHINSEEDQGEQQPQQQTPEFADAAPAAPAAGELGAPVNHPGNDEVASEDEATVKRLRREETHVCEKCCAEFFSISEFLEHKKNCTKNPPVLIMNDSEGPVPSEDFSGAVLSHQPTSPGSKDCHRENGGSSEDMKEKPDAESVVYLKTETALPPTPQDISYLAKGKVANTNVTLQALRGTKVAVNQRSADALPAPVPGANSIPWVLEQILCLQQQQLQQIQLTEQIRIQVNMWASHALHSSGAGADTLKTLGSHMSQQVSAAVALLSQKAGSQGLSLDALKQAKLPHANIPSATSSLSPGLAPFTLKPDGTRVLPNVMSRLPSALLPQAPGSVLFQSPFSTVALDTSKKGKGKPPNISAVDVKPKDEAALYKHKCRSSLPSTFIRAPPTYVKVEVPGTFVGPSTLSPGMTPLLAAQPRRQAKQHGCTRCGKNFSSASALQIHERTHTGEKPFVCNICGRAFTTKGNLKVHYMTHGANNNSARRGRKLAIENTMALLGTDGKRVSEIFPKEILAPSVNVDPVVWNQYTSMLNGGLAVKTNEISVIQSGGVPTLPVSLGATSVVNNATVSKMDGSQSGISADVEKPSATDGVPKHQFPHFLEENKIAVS
GGAGTACA: -0.0515
ATGTCAAG: 0.093
CATAGCCG: -0.0538
GCTTGATA: 0.133

Set 2 — method: protein binding microarray; form: double-stranded DNA, one strand shown; sample: in vitro; concentration: not given; baseline: not given; direction: higher = stronger binding; endpoint: E-score
Target: Histone acetyltransferase KAT6A, winged helix 2, GST fusion (KAT6A, Homo sapiens, UniProt Q92794, residues 85-181)
Setting: 8-mer, flanks averaged, mean of 2 arrays, mostly near background
Target sequence (chain): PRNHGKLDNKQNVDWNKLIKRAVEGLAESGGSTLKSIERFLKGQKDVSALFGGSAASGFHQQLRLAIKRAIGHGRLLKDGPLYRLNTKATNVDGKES
GGTAACTA: 0.00907
CACTAGTA: -0.163
CACAAACG: 0.239
CAGACCGA: 0.0269
CGACTCAC: 0.00985
AAGAGTAG: -0.11
ATATGAGA: 0.0137

Set 3 — method: protein-binding microarray; form: double-stranded DNA, one strand shown; sample: in vitro; concentration: 250 nM; setting: 60-bp whole probe; together with: salmon DNA 0.4 mg/ml; baseline: random background probes; direction: higher = stronger binding; endpoint: log fluorescence
Target: Interferon regulatory factor 5, full length, phosphomimetic (IRF5, Homo sapiens, UniProt Q13568-2, residues 1-514, K96S/S451D/S453D/S456D/S462D)
GCCTAGCACTCAAGTGTTTTTCTCCTACTGTGCTAGGTCTTGATTCGCTTGACGCTGCTG: 0.601 z-score
GCCTAGCACGAGGGTTTCGGACTGGGGACGTGCTAGGTCTTGATTCGCTTGACGCTGCTG: 2.06 z-score
GCCTAGCACTTAGGTTACGGGACTGGGTTAGTGCTAGTCTTGATTCGCTTGACGCTGCTG: -0.121 z-score
GCCTAGCACGACGGTTTCGCACTGGGGACGTGCTAGGTCTTGATTCGCTTGACGCTGCTG: 2.22 z-score

Other studies, line by line
PhoQ, residues 284 288 289 292 302 303 GNNTDL
fold induction (PhoP, residues 12 14 15 18 19 LHSVW (Escherichia coli, UniProt P23836); Sort-seq, item: YFP reporter; E. coli; PhoQ-PhoP variant library, together with: 10 µM Mg2+; baseline: high Mg2+ state, higher = stronger signaling): 1.78

Some of these lines once more (set 1):
CATAGCCG: -0.0538
GCTTGATA: 0.133
